Results gathered from unrelated publications.
Protocols differ between the studies behind these lines.
Organism: Staphylococcus aureus

The MIC of `CC[C@H]1OC(=O)[C@H](C)[C@@H](OC(=O)c2ccc([N+](=O)[O-])cc2)[C@H](C)[C@@H](O[C@@H]2O[C@H](C)C[C@H](N(C)C)[C@H]2O)[C@](C)(OC)C[C@@H](C)C(=O)[C@H](C)[C@@H](O)[C@]1(C)O` is reported as greater than 64 µg/mL (microbial growth; BAA976).
The MIC of `C=C1CN(S(=O)(=O)c2ccc([N+](=O)[O-])cc2)CC2Nc3c(F)cc(Br)cc3C12CCNS(=O)(=O)c1ccc(Cl)cc1` (centres unmarked) is reported as greater than 32 µg/mL (MRSA ATCC BAA-44; compound alone).
The MIC of `O=C(Nc1ccccc1)Nc1ccc2c(c1)OC(F)(F)O2` is reported as greater than 100 µM (microbial growth; NCTC8325).
`CCC(CC)c1cc(CCN2CCCN(S(=O)(=O)c3ccc(F)cc3)CC2)nc(-c2ccccn2)n1` has an MIC of greater than 16 µg/mL (microbial growth, broth dilution; ATCC29213).
With `CC[C@H]1OC(=O)[C@H](C)[C@@H](OC(=O)Cc2ccc3c(c2)OCO3)[C@H](C)[C@@H](O[C@@H]2O[C@H](C)C[C@H](N(C)C)[C@H]2O)[C@](C)(OC)C[C@@H](C)C(=O)[C@H](C)[C@@H](O)[C@]1(C)O` the MIC was 0.5 µg/mL (microbial growth; BAA976).
`CN[C@H](CC(C)C)C(=O)N[C@H]1C(=O)N[C@@H](CC(N)=O)C(=O)N[C@H]2C(=O)N[C@H]3C(=O)N[C@H](C(=O)N[C@H](C(=O)NCc4cn(CC(=O)N[C@H](C(=O)N[C@@H](CCN)C(=O)N[C@H]5CCNC(=O)[C@H]([C@@H](C)O)NC(=O)[C@H](CCN)NC(=O)[C@H](CCN)NC(=O)[C@H](CC(C)C)NC(=O)[C@@H](CC(C)C)NC(=O)[C@H](CCN)NC5=O)[C@@H](C)O)nn4)c4cc(O)cc(O)c4-c4cc3ccc4O)[C@H](O)c3ccc(c(Cl)c3)Oc3cc2cc(c3O[C@@H]2O[C@H](CO)[C@@H](O)[C@H](O)[C@H]2O[C@H]2C[C@](C)(N)[C@H](O)[C@H](C)O2)Oc2ccc(cc2Cl)[C@H]1O` gave an MIC of 0.5 µg/mL (broth microdilution; MRSA USA300, cation-adjusted Mueller-Hinton broth; 20 to 24 h, 37 °C, 0.002% polysorbate 80).
`CCCCCCCCCCCC[N+](C)(C)CCCCCCCCOc1cc(OCCCCCCCC[N+](C)(C)CCCCCCCCCCCC)cc(OCCCCCCCC[N+](C)(C)CCCCCCCCCCCC)c1.[Br-].[Br-].[Br-]` gave an MIC of 8 µM (CA-MRSA USA300-0114).
`CC[C@H]1OC(=O)[C@H](C)[C@@H](OC(=O)Cc2ccc(Cl)cc2)[C@H](C)[C@@H](O[C@@H]2O[C@H](C)C[C@H](N(C)C)[C@H]2O)[C@](C)(OC)C[C@@H](C)C(=O)[C@H](C)[C@@H](O)[C@]1(C)O` gave an MIC of 4 µg/mL (microbial growth; BAA976).
`CCCCCCC#Cc1cncc(-c2nnc(SCc3ccc(Cl)cc3)n2C)c1` gave an MIC of greater than 64 µg/mL (microbial growth, broth dilution; MRSA).
With `COc1nc(C(=O)Nc2ccc(C(=O)O)nc2OC)ccc1NC(=O)c1ccc(NC(=O)[C@H](Cc2c[nH]nn2)NC(=O)c2ccc(NC(=O)/C(C)=C/c3ccc(O)cc3)cc2)cc1` the MIC was 8 µg/mL (broth microdilution; ciprofloxacin-sensitive).
For `CCCCCCCCCCCC[N+](C)(C)CCCCOc1cc(OCCCC[N+](C)(C)CCCCCCCCCCCC)cc(OCCCC[N+](C)(C)CCCCCCCCCCCC)c1.[Br-].[Br-].[Br-]`, the MIC was 2 µM (SH1000 MSSA).
`COc1c(NC(=O)c2ccc(NC(=O)[C@H](Cc3c[nH]nn3)NC(=O)c3ccc(NC(=O)/C(C)=C/c4ccc(O)cc4)cc3)cc2)ccc(C(=O)Nc2ccc(C(=O)O)c(O)c2)c1O` gave an MIC of 2 µg/mL (broth microdilution; ciprofloxacin-resistant).
`CC[C@H]1OC(=O)[C@H](C)C(=O)[C@H](C)[C@@H](O[C@@H]2O[C@H](C)C[C@H](N(C)C)[C@H]2O)[C@](C)(OC)C[C@@H](C)C(=O)[C@H](C)[C@H]2N(CCCCn3cnc(-c4cccnc4)c3)C(=O)O[C@]12C` has an MIC of 128 µg/mL (ATCC 43300 MRSA).
`COc1cccc(OC)c1C(=O)N[C@@H]1C(=O)N2[C@@H]1SC(C)(C)[C@@H]2C(=O)O` has an MIC of 4 µM (microbial growth, broth dilution; 29213).
`c1ccc(CSc2nc3ccccc3cc2CNCCC2CCN(C3CCCC3)CC2)cc1` has an MIC of 32 µg/mL (microbial growth, broth dilution).
With `CCCCCCCC(=O)N[C@@H](CC(N)=O)C(=O)N[C@H]1CNC(=O)[C@H](c2ccc(O)c(Cl)c2)NC(=O)[C@@H](C)NC(=O)[C@H](CC(C)C)NC(=O)CNC(=O)[C@H](c2ccc(O)cc2)NC(=O)[C@@H]([C@H](C)O)NC(=O)[C@H](c2ccc(O)cc2)NC(=O)[C@@H](CCCN)NC(=O)[C@H](Cc2ccccc2)NC(=O)[C@H]([C@@H](C)O)NC(=O)[C@@H](c2ccc(O)cc2)NC(=O)[C@H](c2ccc(O)cc2)NC(=O)[C@@H]([C@H](C)O)NC(=O)[C@@H](CCCN)NC(=O)[C@@H](c2ccc(O)cc2)NC1=O` the MIC was 1 µM (MSSA ATCC 29213).
For `CC[C@H](C)[C@H](N)C1=N[C@H](C(=O)N[C@@H](CC(C)C)C(=O)N[C@H](CCC(=O)O)C(=O)N[C@H](C(=O)N[C@H]2CCCCNC(=O)[C@H](CC(N)=O)NC(=O)[C@@H](CC(=O)O)NC(=O)[C@H](Cc3c[nH]cn3)NC(=O)[C@@H](Cc3ccccc3)NC(=O)[C@H]([C@@H](C)CC)NC(=O)[C@@H](CCCN)NC2=O)[C@@H](C)CC)CS1`, the MIC was 2 µg/mL (USA300 MRSA; with: ZnSO4 0.3 mM).
The MIC of `CCCCCCCCCCn1cc[n+](CCCCCCCCCCOc2cc(OCCCCCCCCCC[n+]3ccn(CCCCCCCCCC)c3)cc(OCCCCCCCCCC[n+]3ccn(CCCCCCCCCC)c3)c2)c1.[Br-].[Br-].[Br-]` is reported as 63 µM (HA-MRSA ATCC 33591).
For `CC[C@H]1OC(=O)[C@H](C)[C@@H](OC(=O)CC2CCCCC2)[C@H](C)[C@@H](O[C@@H]2O[C@H](C)C[C@H](N(C)C)[C@H]2O)[C@](C)(OC)C[C@@H](C)C(=O)[C@H](C)[C@@H](O)[C@]1(C)O`, the MIC was 256 µg/mL (ATCC 43300 MRSA).
`CCCCCCCCn1cc[n+](CCCCOc2cc(OCCCC[n+]3ccn(CCCCCCCC)c3)cc(OCCCC[n+]3ccn(CCCCCCCC)c3)c2)c1.[Br-].[Br-].[Br-]` has an MIC of 0.5 µM (SH1000 MSSA).
`CCCCCCCCCCCC(=O)Oc1c(C)c(OC)c2c(c1C)OC(=O)[C@@H](CCCCCCCCCC)[C@]2(O)/C=C/c1ccccc1` (relative stereo) has an MIC of 1250 µg/mL (microbial growth, broth dilution; ATCC25923).
The MIC of `CCCCCCCC[N+](C)(C)CCCCCCOc1cc(OCCCCCC[N+](C)(C)CCCCCCCC)cc(OCCCCCC[N+](C)(C)CCCCCCCC)c1.[Br-].[Br-].[Br-]` is reported as 0.5 µM (CA-MRSA USA300-0114).
`CCn1cc(/C=C/c2ccc3ccccc3[n+]2CC)c2ccccc21` gave an MIC of 4 µg/mL (1466).

Excerpt of the above:
The MIC of `O=C(Nc1ccccc1)Nc1ccc2c(c1)OC(F)(F)O2` is reported as greater than 100 µM (microbial growth; NCTC8325).
With `COc1nc(C(=O)Nc2ccc(C(=O)O)nc2OC)ccc1NC(=O)c1ccc(NC(=O)[C@H](Cc2c[nH]nn2)NC(=O)c2ccc(NC(=O)/C(C)=C/c3ccc(O)cc3)cc2)cc1` the MIC was 8 µg/mL (broth microdilution; ciprofloxacin-sensitive).
`COc1c(NC(=O)c2ccc(NC(=O)[C@H](Cc3c[nH]nn3)NC(=O)c3ccc(NC(=O)/C(C)=C/c4ccc(O)cc4)cc3)cc2)ccc(C(=O)Nc2ccc(C(=O)O)c(O)c2)c1O` gave an MIC of 2 µg/mL (broth microdilution; ciprofloxacin-resistant).
